Published values pooled from the literature.
Each numbered part is a random draw from the data of one study; scales do not carry over between parts.

Set 1
Target: Histone acetyltransferase KAT6A, winged helix 2, GST fusion (KAT6A, Homo sapiens, UniProt Q92794, residues 85-181)
Method: protein binding microarray
Form: double-stranded DNA, one strand shown
Medium: in vitro
Concentration: not given
Notes: 8-mer, flanks averaged, mean of 2 arrays, mostly near background
Reference: not given
Direction: higher = stronger binding
Quantity: E-score
Target sequence (chain): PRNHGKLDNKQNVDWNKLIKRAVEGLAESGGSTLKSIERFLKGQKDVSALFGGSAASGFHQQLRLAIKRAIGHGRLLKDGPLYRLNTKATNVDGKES
CGACAAGC: -0.0198
AATATGGC: -0.114
AAATCCGC: 0.0807
CTAGCCGC: 0.172
GCCAATTA: 0.0164
AAAATATG: -0.0684
AAGGCGCT: 0.0285
AGCTATAG: -0.178
CCCGGAAC: 0.117
CAGTCGGA: -0.0673
CAAATTGA: -0.0483
AGAAAAGC: 0.0302
AAATGGTC: 0.0645
AGTTTGTC: 0.127
GCCATCCC: 0.0703
CGTCCAAG: -0.091
CAAATCTC: 0.0152
GAGGAGAC: -0.142
AACAAAGC: 0.153

Set 2
Target: Sal-like protein 4, full length isoform B (SALL4, Homo sapiens, UniProt Q9UJQ4-2, residues 1-616)
Method: universal PBM
Form: double-stranded DNA, one strand shown
Medium: in vitro
Concentration: not given
Notes: 8-mer, flanks averaged, mean of replicates
Direction: higher = stronger binding
Quantity: E-score
CTTAGATA: 0.225
AGGTGAAG: -0.0442
AGCAGCCC: -0.291
CCCCGAGA: -0.131
ATTGATTG: 0.188
AGTCTCAA: -0.102
CCCGACAA: 0.017
CATAATCG: 0.201
AGACTAAG: -0.0287
CCTTTGAG: -0.154
AAACCTAC: 0.073
CTCAAGAA: -0.0137
GCATTGAC: 0.0485
GCCACAAC: 0.0935
TCTAGACA: 0.121
AGCGGGTC: -0.324
CGGGTACC: -0.216
CCACACCC: -0.191
GAAGGTTA: 0.0967
TCGTGAGA: -0.0666
ATTGGAGG: -0.0454

Set 3
Target: Interferon regulatory factor 5, full length, phosphomimetic (IRF5, Homo sapiens, UniProt Q13568-2, residues 1-514, K96S/S451D/S453D/S456D/S462D)
Method: protein-binding microarray
Form: double-stranded DNA, one strand shown
Medium: in vitro
Concentration: 250 nM
Notes: 60-bp whole probe
Together with: salmon DNA 0.4 mg/ml
Reference: random background probes
Direction: higher = stronger binding
Quantity: log fluorescence
Shared flanks, not repeated: GCCTAGCAC … GTCTTGATTCGCTTGACGCTGCTG
TGAGGTCTCGGTATCGGTTAGTGCTAG: 4.79 z-score
CTGAGGCTGTGTTTTCACTTTGTGCTA: 1.02 z-score
TCAGGTCTCGCTTCATCACTGTGCTAG: 0.137 z-score
TCCTCTCTCTTTCCACTTGTGTGCTAG: 0.692 z-score
AACGATATCGGGTATCGAGACGTGCTA: 3.09 z-score
GACGATCTCAGTAGCGAGACGTGCTAG: 0.0302 z-score
GACGGTTTCCTTATACTGACGTGCTAG: 0.727 z-score
TTAGATCTCAATATCGATTAGTGCTAG: 3.86 z-score
TCAGGTCTCGGTCTCGGTTAGTGCTAG: 0.742 z-score
TTACATTTATATCTTTGCTTGTGCTAG: 1.28 z-score
AACGATTTCGGGTTTCGAGACGTGCTA: 5.14 z-score
GACTGTCTCCTACTGCTGACGTGCTAG: -0.0103 z-score
TCACCTTTCTCTCTGTGACTGTGCTAG: 1.4 z-score
GACGGTCTCGGTCTCGGGAAGTGCTAG: 0.188 z-score
AGACCTTGCTTTATGTGTAGGTGCTAG: -0.108 z-score
GACGATTTCGGGTGTCGAGACGTGCTA: 3.28 z-score
CTATTTTTCCCCTGCACTCAGTGCTAG: 0.884 z-score
TAGTTTTCAATTTTTGCATCGTGCTAG: 1.88 z-score
AGGCTTTTTTTTTTTTTTTTGTGCTAG: 0.567 z-score

Set 4
Target: Ras GTPase-activating protein-binding protein 1, full length (G3BP1, Homo sapiens, UniProt Q13283)
UniProt Q13283, sequence (whole entry, looked up): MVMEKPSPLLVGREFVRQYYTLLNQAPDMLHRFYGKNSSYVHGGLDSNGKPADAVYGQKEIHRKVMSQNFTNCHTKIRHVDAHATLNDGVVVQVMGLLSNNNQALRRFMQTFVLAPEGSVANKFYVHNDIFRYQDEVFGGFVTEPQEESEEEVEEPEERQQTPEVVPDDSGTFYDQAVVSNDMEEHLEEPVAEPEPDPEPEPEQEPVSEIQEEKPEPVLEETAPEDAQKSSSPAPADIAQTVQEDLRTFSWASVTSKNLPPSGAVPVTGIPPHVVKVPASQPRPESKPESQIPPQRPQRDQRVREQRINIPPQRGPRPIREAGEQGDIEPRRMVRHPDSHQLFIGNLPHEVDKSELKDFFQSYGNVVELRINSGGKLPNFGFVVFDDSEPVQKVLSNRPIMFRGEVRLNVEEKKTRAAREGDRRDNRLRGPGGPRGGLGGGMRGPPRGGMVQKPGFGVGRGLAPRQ
Method: RNA Bind-n-Seq
Form: RNA
Medium: in vitro
Concentration: 200 nM
Notes: whole 134-nt RNA, ends assumed
Together with: 150 mM LiCl
Reference: input library
Direction: higher = stronger binding
Quantity: log2 enrichment
Each molecule: 7-deaza-guanosine replaces G
Shared flanks, not repeated: GGGAGUUCUACAGUCCGACGAUC … UGGAAUUCUCGGGUGUCAAGG
UCCUGUGCUACACAUCGUAUGUACCGAAUCGGGGUUUUUUUGGGGAAAAAGGGGAGGGGAAAGUAUUAUGUUACGCCGUUCGGAUCUGCA: 0.195
CAAGUCCUGUGCUACACAUCGUAUGUACCGAAUCGGGCCCCGGGCCCCGGCCCCGGAAAGUAUUAUGUUACGCCGUUCGGAUCUGCACUU: -1.37
CCUCAAGUCCUGUGCUACACAUCGUAUGUACCGAAUCGGGAAGGAAGGAAGGGAAAGUAUUAUGUUACGCCGUUCGGAUCUGCACUUCCA: -0.0287
UUGUGGAAAACCCACAUGCUCCUCAGAAAGAUGAUGCCCUGGUGAUCACACACUACAACCGGACCCGACAGCAGGAAGAGAUGCUGGGGC: -0.866
AAGUCCUGUGCUACACAUCGUAUGUACCGAAUCGGGAAAGGGUUUUUGGGAAAGGGAAAGUAUUAUGUUACGCCGUUCGGAUCUGCACUU: -0.617
UGUGAAAGAAAACCGAAGUUUUAAAUGACUUCUCAUGGUUAUUUUUUUUCCUUUCUCUUGCAGGACAUUGGGGACACAUUGAGCAGGUAU: -1.05
ACCAUGCAGGUAAACAUCUUUGGGAAGUGGGGCAAGGGGGGGAUAGGGAGGGGGGUAACACUUUGGGAACAGGUGGUCCCAGGUCGUUUC: 0.00372
UUUGAAAAAGAAGAAAAAGAAAAAGAAGGGUAAGGCAUUAAAAAAGUCUUUAUAAAUUUUCUCCAAAAUAAAUGUUUGAUUUUAGCCCUA: -2.89

Some of these lines once more (set 4):
UCCUGUGCUACACAUCGUAUGUACCGAAUCGGGGUUUUUUUGGGGAAAAAGGGGAGGGGAAAGUAUUAUGUUACGCCGUUCGGAUCUGCA: 0.195
CAAGUCCUGUGCUACACAUCGUAUGUACCGAAUCGGGCCCCGGGCCCCGGCCCCGGAAAGUAUUAUGUUACGCCGUUCGGAUCUGCACUU: -1.37
CCUCAAGUCCUGUGCUACACAUCGUAUGUACCGAAUCGGGAAGGAAGGAAGGGAAAGUAUUAUGUUACGCCGUUCGGAUCUGCACUUCCA: -0.0287
UUGUGGAAAACCCACAUGCUCCUCAGAAAGAUGAUGCCCUGGUGAUCACACACUACAACCGGACCCGACAGCAGGAAGAGAUGCUGGGGC: -0.866
AAGUCCUGUGCUACACAUCGUAUGUACCGAAUCGGGAAAGGGUUUUUGGGAAAGGGAAAGUAUUAUGUUACGCCGUUCGGAUCUGCACUU: -0.617
UGUGAAAGAAAACCGAAGUUUUAAAUGACUUCUCAUGGUUAUUUUUUUUCCUUUCUCUUGCAGGACAUUGGGGACACAUUGAGCAGGUAU: -1.05
ACCAUGCAGGUAAACAUCUUUGGGAAGUGGGGCAAGGGGGGGAUAGGGAGGGGGGUAACACUUUGGGAACAGGUGGUCCCAGGUCGUUUC: 0.00372
UUUGAAAAAGAAGAAAAAGAAAAAGAAGGGUAAGGCAUUAAAAAAGUCUUUAUAAAUUUUCUCCAAAAUAAAUGUUUGAUUUUAGCCCUA: -2.89
